Measurements of several laboratories.
Every numbered part comes from another study and shows a few of its results, in no order. ± marks the error that the study gave.
UniProt P34913, sequence (whole entry, looked up): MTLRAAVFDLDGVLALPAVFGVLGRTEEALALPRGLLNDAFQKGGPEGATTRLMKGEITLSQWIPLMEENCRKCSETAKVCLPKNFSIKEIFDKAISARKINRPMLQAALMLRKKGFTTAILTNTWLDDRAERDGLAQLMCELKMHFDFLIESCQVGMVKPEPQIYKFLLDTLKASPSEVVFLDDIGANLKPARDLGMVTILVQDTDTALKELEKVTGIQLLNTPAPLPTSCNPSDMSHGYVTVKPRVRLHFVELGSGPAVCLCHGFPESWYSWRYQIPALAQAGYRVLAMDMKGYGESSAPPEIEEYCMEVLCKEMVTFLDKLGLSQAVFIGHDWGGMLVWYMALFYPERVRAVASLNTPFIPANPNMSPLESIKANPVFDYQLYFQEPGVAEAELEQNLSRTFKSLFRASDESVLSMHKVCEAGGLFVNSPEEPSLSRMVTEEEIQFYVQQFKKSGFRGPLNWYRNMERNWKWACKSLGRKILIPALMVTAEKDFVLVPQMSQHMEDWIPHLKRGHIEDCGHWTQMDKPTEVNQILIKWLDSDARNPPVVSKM
UniProt Q13342, sequence (whole entry, unmodified, looked up): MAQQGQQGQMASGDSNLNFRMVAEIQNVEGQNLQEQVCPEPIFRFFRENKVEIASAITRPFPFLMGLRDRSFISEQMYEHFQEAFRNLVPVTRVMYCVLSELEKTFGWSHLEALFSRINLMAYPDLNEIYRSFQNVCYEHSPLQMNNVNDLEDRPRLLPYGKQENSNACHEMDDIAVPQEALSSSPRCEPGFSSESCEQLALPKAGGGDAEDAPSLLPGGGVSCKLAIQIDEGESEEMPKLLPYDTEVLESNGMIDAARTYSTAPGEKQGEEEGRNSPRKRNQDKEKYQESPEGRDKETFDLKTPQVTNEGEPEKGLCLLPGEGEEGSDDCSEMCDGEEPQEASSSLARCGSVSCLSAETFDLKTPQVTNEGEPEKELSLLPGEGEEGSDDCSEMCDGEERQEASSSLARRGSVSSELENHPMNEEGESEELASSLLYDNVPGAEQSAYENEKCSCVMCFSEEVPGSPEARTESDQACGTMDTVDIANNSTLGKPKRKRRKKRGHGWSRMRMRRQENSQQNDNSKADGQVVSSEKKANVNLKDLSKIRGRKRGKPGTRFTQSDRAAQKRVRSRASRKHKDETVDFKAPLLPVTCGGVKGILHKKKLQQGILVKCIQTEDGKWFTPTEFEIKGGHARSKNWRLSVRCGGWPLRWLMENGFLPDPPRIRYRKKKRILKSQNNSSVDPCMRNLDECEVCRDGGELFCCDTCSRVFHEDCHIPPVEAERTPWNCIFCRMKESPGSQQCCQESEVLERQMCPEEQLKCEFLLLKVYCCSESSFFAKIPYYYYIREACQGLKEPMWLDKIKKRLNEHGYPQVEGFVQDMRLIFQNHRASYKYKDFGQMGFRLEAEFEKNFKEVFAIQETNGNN

Sample 1
SMILES: Cc1cc(OCc2nnc(SC3CCCC3)n2-c2cccnc2)ccc1-c1ccc(S(C)(=O)=O)cc1
| cell line | GI50 |
| --- | --- |
| OVCAR-3 | 1.36 µM |
| NCI-H322M | 2.27 µM |
| SK-OV-3 | 3.45 µM |

Single results of other studies
| Structure (SMILES) | tested on | assay | test system | setting | endpoint | result |
| --- | --- | --- | --- | --- | --- | --- |
| CC[C@@H]1C(=O)N(C)c2cnc(Nc3ccc(C(=O)NC4CCN(C)CC4)cc3OC)nc2N1C1CCCC1 | SP140 (Homo sapiens, UniProt Q13342) | thermal stabilisation, thermal shift | – | 10 µM | ΔTm | -0.05 ± 0.05 °C |
| N#Cc1ccc(-c2csc(CNC(=O)C34CC(CN(C(=O)COCCF)C3)C4)n2)cc1 | – | – | human, both sexes, cryopreserved hepatocytes | 0.5 µM | CLint | 1.6 µL/min/10⁶ cells |
| Cc1ccc(S(=O)(=O)Nc2c(N3CCC(NC(=O)Nc4ccc(C#N)cc4Cl)CC3)c(=O)c2=O)cc1 | EPHX2 (Homo sapiens, UniProt P34913) | – | – | – | IC50 | 0.0362 ± 0.0029 µM |
